# Experimental data from different studies.
# Each numbered part is a random draw from the data of one study; scales do not carry over between parts. Substitutions count along the parent as printed.

# Series 1
# Molecule: PhoQ, residues 284 288 289 292 302 303 SMYGEC
# Method: Sort-seq
# Measured: YFP reporter
# Medium: E. coli
# Notes: PhoQ-PhoP variant library
# Together with: 10 µM Mg2+
# Reference: high Mg2+ state
# Reading: higher = stronger signaling
target,fold induction
"PhoP, residues 12 14 15 18 19 LFHKL (Escherichia coli, UniProt P23836)",6.82
"PhoP, residues 12 14 15 18 19 QQAYL (Escherichia coli, UniProt P23836)",1.17
"PhoP, residues 12 14 15 18 19 GMGLL (Escherichia coli, UniProt P23836)",0.896

# Series 2
# Target: ABI1, truncated, D143A, DHFR fusion (Arabidopsis thaliana)
# Method: DHFR PCA, deep sequencing
# Medium: yeast
# Notes: methotrexate growth selection, single substitutions
# Together with: (+)-ABA 4.8 µM
# Reference: wild-type fitted maximum
# Reading: higher = stronger binding
# Parent: PYL1, truncated, DHFR fusion (Arabidopsis thaliana); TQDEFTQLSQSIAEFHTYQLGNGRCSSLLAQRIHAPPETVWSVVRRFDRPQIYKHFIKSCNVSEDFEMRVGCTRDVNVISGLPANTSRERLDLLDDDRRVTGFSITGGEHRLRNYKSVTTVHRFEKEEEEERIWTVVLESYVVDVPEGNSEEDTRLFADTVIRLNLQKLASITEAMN
Change,relative binding score [%]
L156D,36.6
P36S,69.9
P83N,-0.131
L91M,43.6
T135G,-6.79
T86E,32
S11K,51.4
M68N,56.1
Y53L,-4.5
H55R,85.9

# Series 3
# Target: CCND3, cyclin fold, Cln2 fusion (human)
# Method: yeast growth competition, sequencing
# Medium: yeast
# Notes: weak parent motif
# Reference: not given
# Reading: higher = stronger binding
# Parent: CDC6 docking peptide (human); TLKGRRLVFDNQL; partner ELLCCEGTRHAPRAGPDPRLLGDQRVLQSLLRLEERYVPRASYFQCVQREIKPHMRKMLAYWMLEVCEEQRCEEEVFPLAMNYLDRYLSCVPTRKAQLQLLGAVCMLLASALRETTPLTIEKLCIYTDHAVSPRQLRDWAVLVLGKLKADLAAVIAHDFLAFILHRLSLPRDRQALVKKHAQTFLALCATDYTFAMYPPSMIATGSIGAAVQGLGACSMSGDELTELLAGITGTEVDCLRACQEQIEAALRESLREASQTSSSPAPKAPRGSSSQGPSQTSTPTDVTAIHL
Change,normalised enrichment score
R6E,0.06
K3P,0.0483
L13S,0.158
L7Q,0.173
D10Y,0.154
G4I,0.228
K3T,0.159
N11Q,0.109
Q12I,0.0892
L7I,0.119
K3F,0.0331

# Series 4
# Target: CREB3L1, bZIP domain (human)
# Method: DHFR protein complementation
# Medium: yeast
# Notes: single substitutions, most at no-binding floor
# Reference: wild-type JUN-FOS pair
# Reading: higher = stronger binding
# Parent: JUN, bZIP domain (human); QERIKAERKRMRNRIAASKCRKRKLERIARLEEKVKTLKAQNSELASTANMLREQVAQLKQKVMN; partner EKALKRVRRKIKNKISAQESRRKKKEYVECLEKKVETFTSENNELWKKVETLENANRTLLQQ
Change,binding fitness
K34D,-1.02 natural log
V35A,-1.51 natural log
A46L,-1.37 natural log
K36Q,-1.5 natural log
A29E,-1.34 natural log
S47F,-1.39 natural log
L52R,-1.5 natural log
E32L,-1.43 natural log
A40G,-1.45 natural log
E33P,-1.5 natural log
Q55E,-1.46 natural log
K34S,-1.41 natural log
K34Y,-1.56 natural log
L52W,-1.47 natural log
A29N,-1.5 natural log

# A few entries again (series 1):
target,fold induction
"PhoP, residues 12 14 15 18 19 LFHKL (Escherichia coli, UniProt P23836)",6.82
"PhoP, residues 12 14 15 18 19 QQAYL (Escherichia coli, UniProt P23836)",1.17
"PhoP, residues 12 14 15 18 19 GMGLL (Escherichia coli, UniProt P23836)",0.896
